Assay results of several laboratories.
± marks the error that the study gave.
UniProt Q9H2X6, sequence (whole entry, looked up): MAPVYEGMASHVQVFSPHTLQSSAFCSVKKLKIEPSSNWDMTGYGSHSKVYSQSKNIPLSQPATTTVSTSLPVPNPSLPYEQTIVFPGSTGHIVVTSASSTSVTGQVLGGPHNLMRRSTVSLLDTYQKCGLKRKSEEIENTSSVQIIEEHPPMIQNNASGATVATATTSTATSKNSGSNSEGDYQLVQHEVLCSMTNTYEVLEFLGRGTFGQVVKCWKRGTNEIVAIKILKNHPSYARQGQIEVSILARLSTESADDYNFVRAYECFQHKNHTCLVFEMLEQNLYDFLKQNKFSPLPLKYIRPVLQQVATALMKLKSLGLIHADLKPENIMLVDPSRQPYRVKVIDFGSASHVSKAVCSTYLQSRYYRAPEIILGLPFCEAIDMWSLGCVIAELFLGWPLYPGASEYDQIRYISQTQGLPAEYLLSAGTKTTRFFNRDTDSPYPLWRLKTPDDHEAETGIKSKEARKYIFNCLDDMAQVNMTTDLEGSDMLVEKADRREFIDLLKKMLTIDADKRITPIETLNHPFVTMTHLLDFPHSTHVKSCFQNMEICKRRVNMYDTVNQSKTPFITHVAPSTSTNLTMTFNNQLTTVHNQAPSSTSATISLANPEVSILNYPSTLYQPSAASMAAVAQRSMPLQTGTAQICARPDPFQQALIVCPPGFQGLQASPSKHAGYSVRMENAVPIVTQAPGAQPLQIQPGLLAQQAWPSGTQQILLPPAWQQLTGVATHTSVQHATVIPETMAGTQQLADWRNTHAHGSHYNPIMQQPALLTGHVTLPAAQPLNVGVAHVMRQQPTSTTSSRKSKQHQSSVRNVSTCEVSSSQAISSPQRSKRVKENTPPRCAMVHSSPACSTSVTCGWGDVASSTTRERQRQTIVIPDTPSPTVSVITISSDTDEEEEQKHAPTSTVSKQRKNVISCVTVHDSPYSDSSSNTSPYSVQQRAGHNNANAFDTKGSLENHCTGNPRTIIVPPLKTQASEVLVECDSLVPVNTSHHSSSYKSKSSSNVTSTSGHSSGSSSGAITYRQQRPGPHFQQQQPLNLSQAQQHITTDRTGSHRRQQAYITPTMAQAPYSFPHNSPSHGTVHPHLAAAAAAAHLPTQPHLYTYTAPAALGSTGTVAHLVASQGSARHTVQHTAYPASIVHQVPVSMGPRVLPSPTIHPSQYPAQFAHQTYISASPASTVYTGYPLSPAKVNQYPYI
UniProt Q96SB4, sequence (whole entry, looked up): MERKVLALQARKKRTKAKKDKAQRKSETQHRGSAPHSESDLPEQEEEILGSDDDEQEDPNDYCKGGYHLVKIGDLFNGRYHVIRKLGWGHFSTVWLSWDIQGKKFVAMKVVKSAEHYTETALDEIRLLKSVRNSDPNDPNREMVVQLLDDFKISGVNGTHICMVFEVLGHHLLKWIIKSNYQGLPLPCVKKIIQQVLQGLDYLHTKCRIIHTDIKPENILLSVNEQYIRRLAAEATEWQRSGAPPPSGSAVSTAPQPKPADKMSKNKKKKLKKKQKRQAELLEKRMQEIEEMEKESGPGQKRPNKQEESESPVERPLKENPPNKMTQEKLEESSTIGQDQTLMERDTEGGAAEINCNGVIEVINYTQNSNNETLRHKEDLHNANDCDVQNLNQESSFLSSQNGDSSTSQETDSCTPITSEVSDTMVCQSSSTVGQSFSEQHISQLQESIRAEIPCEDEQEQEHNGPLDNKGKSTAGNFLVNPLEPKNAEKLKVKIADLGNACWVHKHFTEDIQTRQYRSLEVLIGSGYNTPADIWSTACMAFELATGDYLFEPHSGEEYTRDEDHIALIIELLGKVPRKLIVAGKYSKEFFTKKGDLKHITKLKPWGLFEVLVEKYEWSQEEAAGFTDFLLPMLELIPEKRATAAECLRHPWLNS
UniProt Q06187, sequence (whole entry, looked up): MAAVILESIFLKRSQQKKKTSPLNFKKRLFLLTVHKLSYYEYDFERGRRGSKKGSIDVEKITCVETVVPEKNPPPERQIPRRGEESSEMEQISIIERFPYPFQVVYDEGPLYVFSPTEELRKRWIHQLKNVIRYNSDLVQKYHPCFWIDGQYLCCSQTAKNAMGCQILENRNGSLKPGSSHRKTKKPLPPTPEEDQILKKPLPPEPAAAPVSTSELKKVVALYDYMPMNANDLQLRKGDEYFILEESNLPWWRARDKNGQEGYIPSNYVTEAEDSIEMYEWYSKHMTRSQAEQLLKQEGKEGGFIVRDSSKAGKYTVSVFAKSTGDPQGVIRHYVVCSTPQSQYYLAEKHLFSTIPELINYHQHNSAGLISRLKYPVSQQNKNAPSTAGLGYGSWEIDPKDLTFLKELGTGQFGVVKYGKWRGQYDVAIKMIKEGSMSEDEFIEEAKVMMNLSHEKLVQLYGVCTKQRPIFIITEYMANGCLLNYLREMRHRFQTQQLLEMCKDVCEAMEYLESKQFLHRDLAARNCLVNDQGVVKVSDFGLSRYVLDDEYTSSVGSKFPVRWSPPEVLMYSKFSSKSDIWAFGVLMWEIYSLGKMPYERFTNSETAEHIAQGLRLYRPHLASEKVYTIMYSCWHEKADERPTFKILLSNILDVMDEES

SMILES | target or system | assay | test system | setting | how to read | endpoint | value
CS(=O)(=O)c1cc(Cl)cc(-c2cc(Cl)c(Cl)cc2Cl)c1Cl |  | ultrafiltration | cow milk whey | 500 nM nominal in whole milk |  | final permeate concentration | 13.7 nM
Cc1nc2cccc(OCC(C)(C)C(=O)NC(C)C)c2c(N)c1C(=O)[O-].[Na+] | Salmonella typhimurium |  | TA100 | 0.32 mg per plate, with S9, preincubation |  | revertant colonies per plate | 120 ± 6
CCCC[C@H]1C(=O)N(C)[C@@H](CCCC)C(=O)N[C@@H](CCCNC(=O)CN2CCN(CC(=O)O)CCN(CC(=O)O)CCN(CC(=O)O)CC2)C(=O)N[C@H](C(=O)NCC(N)=O)CSCC(=O)N[C@@H](Cc2ccc(O)cc2)C(=O)N(C)[C@@H](C)C(=O)N[C@@H](CC(N)=O)C(=O)N2CCC[C@H]2C(=O)N[C@@H](Cc2c[nH]cn2)C(=O)N[C@@H](CC(C)C)C(=O)N(C)CC(=O)N[C@@H](Cc2c[nH]c3ccccc23)C(=O)N[C@@H](CO)C(=O)N[C@@H](Cc2c[nH]c3ccccc23)C(=O)N1C [gallium-68 labelled] |  |  | NOD/SCID mice, CHO-hPD-L1 xenograft, heart | 60 min, together with: blocking agent 50 µg co-injected |  | tissue uptake | 4.21 ± 0.98 %ID/g
CS(C)(=O)=Nc1ccc(-c2ccc(-c3nc4cc(O[C@@H]5CO[C@H]6[C@@H]5OC[C@H]6O)[nH]c4cc3F)cc2)cc1 | Tyrosine-protein kinase BTK (BTK, Homo sapiens, UniProt Q06187) | enzyme activity, inhibitor |  | 10 µM |  | inhibition | 3%
N=C(N)NCCC[C@H](NC(=O)[C@H](CCCNC(=N)N)NC(=O)[C@H](CCCNC(=N)N)NC(=O)[C@H](CCC(N)=O)NC(=O)[C@H](CCCNC(=N)N)NC(=O)[C@H](CCCNC(=N)N)NC(=O)[C@H](CCCCN)NC(=O)[C@H](CCCCN)NC(=O)[C@H](CCCNC(=N)N)NC(=O)CNC(=O)[C@H](Cc1ccc(O)cc1)NC(=O)[C@H](Cc1ccccc1)NC(=O)[C@H](Cc1ccccc1)NC(=O)[C@H](Cc1ccccc1)NC(=O)Cc1ccc2ccccc2c1)C(=O)O |  |  | C57BL/6 mice | intraperitoneal, 20 mg/kg, 12 h | direction not given | health score | 5
CC[C@H](C)[C@H](NC(=O)[C@H](CCCCN)NC(=O)CNC(=O)[C@H](CC(C)C)NC(=O)[C@H](Cc1ccccc1)NC(=O)[C@H](CCCCN)NC(=O)[C@H](CO)NC(=O)[C@H](Cc1ccccc1)NC(=O)[C@H](Cc1c[nH]c2ccccc12)NC(=O)[C@H](CCC(N)=O)NC(=O)[C@@H](NC(=O)[C@H](Cc1ccccc1)NC(=O)CCCCCNC(=O)CN1CCN(CC(=O)O)CCN(CC(=O)O)CCN(CC(=O)O)CC1)C(C)C)C(=O)N[C@@H](CCC(=O)O)C(=O)N1CCC[C@H]1C(=O)N[C@@H](CC(=O)O)C(=O)N[C@H](C(=O)N[C@@H](CO)C(=O)N[C@@H](CCC(N)=O)C(=O)N[C@H](C(=O)N[C@@H](CCC(N)=O)C(=O)N[C@@H](CC(=O)O)C(=O)N1CCC[C@H]1C(=O)N[C@@H](CC(N)=O)C(=O)N[C@@H](CC(=O)O)C(=O)N[C@@H](CCC(N)=O)C(=O)N[C@@H](Cc1ccc(O)cc1)C(=O)N[C@@H](CCC(=O)O)C(=O)N1CCC[C@H]1C(=O)N[C@@H](Cc1ccccc1)C(=O)O)C(C)C)C(C)C [copper-64 labelled] |  |  | C57BL/6 mice, brain | together with: LPS 0.1 mg/kg intratracheal |  | tissue uptake | 0.11 ± 0.01 %ID/g
C=C/C=C/C[C@@H](C)[C@@H](O)[C@H]1C(=O)N[C@@H](CC)C(=O)N(C)CC(=O)N(C)[C@@H](CC(C)C)C(=O)N[C@@H](C(C)C)C(=O)N(C)[C@@H](CC(C)C)C(=O)N[C@@H](C)C(=O)N[C@H](C)C(=O)N(C)[C@@H](CC(C)C)C(=O)N(C)[C@@H](CC(C)C)C(=O)N(C)[C@@H](C(C)C)C(=O)N1C |  |  | Wistar Kyoto rat, male, plasma | ip, 0.5 mg/kg/day, day 18 |  | plasma Cl− level | 101 ± 1 mmol/L
O=C1NC(=O)c2c1c1cc(F)c[n+]3c1c1c2c2cc(O)ccc2[n]1[Ru-4]312([N]=C=S)[S+]3CC[S+]1CC[S+]2CC3 (stereo not shown) | Homeodomain-interacting protein kinase 2 (HIPK2, Homo sapiens, UniProt Q9H2X6) | enzyme activity |  | 100 nM, human enzyme, together with: 10 µM ATP | baseline: untreated | remaining activity | 39%
N=C(N)NCCC[C@@H](NC(=O)[C@H](N)Cc1c[nH]c2ccccc12)C(=O)N[C@H](CCCCN)C(=O)N[C@H](Cc1c[nH]c2ccccc12)C(=O)N[C@H](CCCNC(=N)N)C(=O)N[C@H](CCCCN)C(=O)N[C@H](Cc1c[nH]c2ccccc12)C(=O)N[C@H](CCCNC(=N)N)C(=O)N[C@H](CCCCN)C(=O)N[C@H](Cc1c[nH]c2ccccc12)C(=O)N[C@H](CCCNC(=N)N)C(=O)N[C@H](CCCCN)C(N)=O |  |  | mouse, serum | 30 mg/kg |  | Kim-1 level | 81.6 ng/mL
O=C(O)/C=C\c1ccc2occc2c1O[C@@H]1O[C@H](CO)[C@@H](O)[C@H](O)[C@H]1O |  |  | rat, plasma | oral, dose not given, dosed as combined Eu and Pc extracts | baseline: single extracts | AUC(0-inf) decrease | 455 ± 390 mg·h/L
O=C1NC2(CC2)COc2ncc(F)cc2[C@H]2COCCN2c2ccn3ncc1c3n2 |  |  | Sprague-Dawley rat, male, serum | oral, 10 mg/kg/day, 4 weeks daily, end of treatment |  | alkaline phosphatase activity | 139 ± 22.4 U/L
CSCC[C@H](N)C(=O)N[C@@H](C)C(=O)N[C@@H](CCCNC(=N)N)C(=O)N[C@@H](CCCNC(=N)N)C(=O)N[C@@H](CC(=O)O)C(=O)N[C@@H](CCCCN)C(=O)N[C@H](C(=O)N[C@@H](CC(=O)O)C(=O)N[C@@H](Cc1ccccc1)C(=O)N[C@@H](C)C(=O)N[C@@H](CCCNC(=N)N)C(=O)N[C@@H](CCCNC(=N)N)C(=O)N[C@@H](CCCNC(=N)N)C(=O)N[C@@H](CCCNC(=N)N)C(=O)NCCCCCC(=O)NCCCCC(NC(=O)CCCCCNC(=O)[C@H](CCCNC(=N)N)NC(=O)[C@H](CCCNC(=N)N)NC(=O)[C@H](CCCNC(=N)N)NC(=O)[C@H](CCCNC(=N)N)NC(=O)[C@H](C)NC(=O)[C@H](Cc1ccccc1)NC(=O)[C@H](CC(=O)O)NC(=O)[C@@H](NC(=O)[C@H](CCCCN)NC(=O)[C@H](CC(=O)O)NC(=O)[C@H](CCCNC(=N)N)NC(=O)[C@H](CCCNC(=N)N)NC(=O)[C@H](C)NC(=O)[C@@H](N)CCSC)[C@@H](C)O)C(=O)NCCCCC(NC(=O)C(CCCCNC(=O)CCCCCNC(=O)[C@H](CCCNC(=N)N)NC(=O)[C@H](CCCNC(=N)N)NC(=O)[C@H](CCCNC(=N)N)NC(=O)[C@H](CCCNC(=N)N)NC(=O)[C@H](C)NC(=O)[C@H](Cc1ccccc1)NC(=O)[C@H](CC(=O)O)NC(=O)[C@@H](NC(=O)[C@H](CCCCN)NC(=O)[C@H](CC(=O)O)NC(=O)[C@H](CCCNC(=N)N)NC(=O)[C@H](CCCNC(=N)N)NC(=O)[C@H](C)NC(=O)[C@@H](N)CCSC)[C@@H](C)O)NC(=O)CCCCCNC(=O)[C@H](CCCNC(=N)N)NC(=O)[C@H](CCCNC(=N)N)NC(=O)[C@H](CCCNC(=N)N)NC(=O)[C@H](CCCNC(=N)N)NC(=O)[C@H](C)NC(=O)[C@H](Cc1ccccc1)NC(=O)[C@H](CC(=O)O)NC(=O)[C@@H](NC(=O)[C@H](CCCCN)NC(=O)[C@H](CC(=O)O)NC(=O)[C@H](CCCNC(=N)N)NC(=O)[C@H](CCCNC(=N)N)NC(=O)[C@H](C)NC(=O)[C@@H](N)CCSC)[C@@H](C)O)C(N)=O)[C@@H](C)O (stereo partly shown) |  |  | C57BL/6 mouse female, spine | dose not given, 6 h | baseline: total | mean tissue distribution | 5.5%
CC[C@H](C)[C@H](NC(=O)[C@H](CCCN)NC(=O)[C@H](CCCNC(=N)N)NC(=O)[C@@H]1CCCN1C(=O)[C@@H]1CCCN1C(=O)[C@H](CCCNC(=N)N)NC(=O)[C@@H]1CCCN1C(=O)[C@H](CCCNC(=N)N)NC(=O)[C@@H]1CCCN1C(=O)[C@H](CC(C)C)NC(=O)[C@H](Cc1ccc(O)cc1)NC(=O)[C@@H]1CCCN1C(=O)[C@@H]1CCCN1C(=O)[C@H](CCCCN)NC(=O)[C@H](CC(=O)O)NC(=O)[C@@H](N)C(C)C)C(=O)N[C@@H](Cc1ccc(O)cc1)C(=O)N[C@@H](CC(N)=O)C(=O)N[C@@H](CCCN)C(N)=O |  | competitive ELISA | mouse CD-1, female, plasma | subcutaneous, 4.34 µmol/kg |  | volume of distribution | 47.3 mL
CC(C)[C@@H]1NC(=O)CNC(=O)[C@H](CC(N)=O)NC(=O)[C@H](CCCNC(=N)N)NC(=O)[C@H](Cc2ccc(O)cc2)NC(=O)[C@H](C(C)C)NC(=O)[C@@H](NC(=O)[C@@H](NC(=O)[C@H](CC(N)=O)NC(=O)[C@H](Cc2c[nH]c3ccccc23)NC(=O)[C@H](C)NC(=O)[C@H](Cc2ccccc2)NC(=O)CNC(=O)[C@H](CCCCN)NC(=O)[C@H](Cc2ccccc2)NC(=O)[C@H](Cc2ccccc2)NC(=O)[C@H](CCCCN)NC(=O)OCC2c3ccccc3-c3ccccc32)C(C)C)CSSC[C@@H](C(=O)N[C@@H](Cc2c[nH]cn2)C(=O)N[C@@H](CCCNC(=N)N)C(=O)N[C@@H](CCCNC(=N)N)C(=O)N[C@@H](C)C(=O)N[C@@H](CC(N)=O)C(N)=O)NC(=O)[C@H](C(C)C)NC(=O)[C@H](CCCNC(=N)N)NC1=O |  |  | ICR mouse | ip, 5 mg/kg | direction not given | spasm score | 0
CC(C)[C@H]1NC(=O)C[C@H]2/C=C/CCSSC[C@@H](NC1=O)C(=O)N[C@H](Cc1cccc3ccccc13)C(=O)NCC(=O)O2 | SRSF protein kinase 1 (SRPK1, Homo sapiens, UniProt Q96SB4) | enzyme activity, inhibitor |  | 10 µM |  | inhibition | -3.5%
CN1Cc2cc(Cl)ccc2-n2c(nnc2C2CCN(c3cccc([18F])n3)CC2)C1 |  |  | C57BL/6 mouse male, blood | intravenous, 3.7 MBq, 15 min |  | tissue uptake | 3.18 ± 0.68 %ID/g
COc1ccccc1-c1n[nH]c2nc(NC3CCN(C(=O)Cc4ccc(F)cc4F)CC3)ncc12 |  | bead binding, competition bead pull-down, refers to: LINJ.30.3560 | Leishmania donovani extract | 10 µM | baseline: vehicle | relative abundance | 1.11
C=Cc1c(C)c2cc3nc(c(CC(=O)O)c4[nH]c(cc5nc(cc1[nH]2)C(C)=C5CC)c(C)c4C(=O)O)[C@@H](CCC(=O)NCCCC[C@H](NC(C)=O)C(=O)N[C@@H](Cc1ccccc1)C(=O)N[C@@H](Cc1ccccc1)C(=O)N[C@H](C(=O)N[C@@H](CC(C)C)C(=O)N[C@@H](CCCCN)C(=O)N[C@@H](CO)C(=O)NCC(=O)N[C@@H](CCC(N)=O)C(=O)N[C@@H](Cc1ccc(O)cc1)C(=O)N[C@@H](C)C(=O)N[C@@H](CO)C(=O)N[C@@H](Cc1ccc(O)cc1)C(=O)N[C@@H](Cc1c[nH]cn1)C(=O)N[C@@H](CS)C(=O)N[C@@H](Cc1c[nH]c2ccccc12)C(=O)N[C@@H](CS)C(=O)N[C@@H](Cc1c[nH]c2ccccc12)C(=O)N[C@@H](CCCNC(=N)N)C(=O)N[C@@H](CC(=O)O)C(=O)N1CCC[C@H]1C(=O)NCC(=O)N[C@@H](CCCNC(=N)N)C(=O)N[C@@H](CO)C(=O)NCC(=O)NCC(=O)N[C@@H](CO)C(=O)N[C@@H](CCCCN)C(N)=O)C(C)C)[C@@H]3C |  |  | mouse, blood | 2 h |  | blood concentration | 129 µg/mL
CC(C)(C)C(=O)OCOP(=O)(OCOC(=O)C(C)(C)C)C1CCCN(O)C1=O (stereo not shown) | UACC-257 |  |  |  |  | log LC50 | > -4 log M

Some of these lines once more:
SMILES | target or system | assay | test system | setting | how to read | endpoint | value
O=C1NC(=O)c2c1c1cc(F)c[n+]3c1c1c2c2cc(O)ccc2[n]1[Ru-4]312([N]=C=S)[S+]3CC[S+]1CC[S+]2CC3 (stereo not shown) | Homeodomain-interacting protein kinase 2 (HIPK2, Homo sapiens, UniProt Q9H2X6) | enzyme activity |  | 100 nM, human enzyme, together with: 10 µM ATP | baseline: untreated | remaining activity | 39%
N=C(N)NCCC[C@@H](NC(=O)[C@H](N)Cc1c[nH]c2ccccc12)C(=O)N[C@H](CCCCN)C(=O)N[C@H](Cc1c[nH]c2ccccc12)C(=O)N[C@H](CCCNC(=N)N)C(=O)N[C@H](CCCCN)C(=O)N[C@H](Cc1c[nH]c2ccccc12)C(=O)N[C@H](CCCNC(=N)N)C(=O)N[C@H](CCCCN)C(=O)N[C@H](Cc1c[nH]c2ccccc12)C(=O)N[C@H](CCCNC(=N)N)C(=O)N[C@H](CCCCN)C(N)=O |  |  | mouse, serum | 30 mg/kg |  | Kim-1 level | 81.6 ng/mL
O=C(O)/C=C\c1ccc2occc2c1O[C@@H]1O[C@H](CO)[C@@H](O)[C@H](O)[C@H]1O |  |  | rat, plasma | oral, dose not given, dosed as combined Eu and Pc extracts | baseline: single extracts | AUC(0-inf) decrease | 455 ± 390 mg·h/L
